Assay results of several laboratories.
Parts stem from different laboratories: compare values within a part only.

Set 1
Target: PABPC1L2, full length, GST fusion (mouse, UniProt A0ABA7IW68)
Technique: RNAcompete
Form: RNA
Sample: in vitro
Concentration: 20 nM
Notes: 7-mer, probes averaged, single round
Relative to: mean of 7-mers
Reading: higher = stronger binding
Target sequence (chain): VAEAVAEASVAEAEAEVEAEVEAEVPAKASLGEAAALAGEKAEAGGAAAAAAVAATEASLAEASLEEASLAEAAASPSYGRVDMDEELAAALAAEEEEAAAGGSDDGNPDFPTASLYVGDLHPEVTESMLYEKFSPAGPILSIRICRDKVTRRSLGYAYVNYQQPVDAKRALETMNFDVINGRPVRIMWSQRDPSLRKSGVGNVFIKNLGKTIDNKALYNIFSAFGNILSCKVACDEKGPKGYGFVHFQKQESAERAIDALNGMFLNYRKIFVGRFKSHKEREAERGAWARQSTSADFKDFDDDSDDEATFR
Strand | 7-mer Z-score
GUUUAUU | -0.353
UAGGUAU | -0.0554
AUCAAGU | -0.0609
UUUCGGG | -0.188
UUCACAU | -0.324
AAAUCCC | 0.249
UGGCCCC | -0.331
GGCUAAA | 0.717
GCAGUGC | -0.157
UUUAAUG | 0.182
GGGGGUU | 0.169
CAGUAUU | -0.28
CAGCAUG | -0.0736
GAUCCAG | -0.0283
UAUGUUU | -0.407
AUAAGUG | 0.00436
GGUACGA | -0.0228
UCCAUGA | -0.166
UAUGGCA | 0.000733
UUGCCAC | -0.168
AAUCCCG | -0.309
GAUACAG | 0.0986
UAUGGUA | -0.113
CACCUAC | -0.333
UCCUUCG | -0.432

Set 2
Target: RNA binding protein fox-1 homolog 2, RRM domain, GST-SBP tag (RBFOX2, Homo sapiens, UniProt O43251-10, residues 100-194)
Technique: RNA Bind-n-Seq
Form: RNA
Sample: in vitro
Concentration: 365 nM
Notes: natural RNA segment, single round, ends assumed
Relative to: no-protein control
Reading: higher = stronger binding
Residues (chain): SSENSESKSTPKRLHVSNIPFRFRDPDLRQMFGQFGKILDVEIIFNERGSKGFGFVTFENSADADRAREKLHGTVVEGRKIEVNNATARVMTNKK
Strand | RBNS enrichment (R)
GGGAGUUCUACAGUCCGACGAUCGGGCAGUGGUCCUUCCAAAUAGAAGUCCUGGGGCCUGGCCAGGCCAGGGUUUGGGCCUAAUGGUUUUUACUAAAUUACUCCCCUCCUGCUCUCCGAGAAAGGGGAGCCAGUGGAAUUCUCGGGUGCCAA | 0.263
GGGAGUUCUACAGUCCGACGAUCUUACAUGGGAAGAACUGCUCUAACCCACUGUGCUAAUGUUCAGAAGCAGAGCCCUCAGUGAGAGCUGCACACACGAGCCUCUAGCAUCACUACACAGUGUGCACACACUGUGGAAUUCUCGGGUGCCAA | 0.424
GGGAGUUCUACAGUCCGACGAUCCUUCAUCAUCUUUGAGAUCAUUAGAGCCUGUAUAAAGGGGAUUAUGGCCCUGCCUUCUAUGUCACACAUAGGAUUUGGUGUCAUUAGUGUUUGCUGUCAUGCCCCAUGAGUGGAAUUCUCGGGUGCCAA | 0.607
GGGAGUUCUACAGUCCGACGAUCGCAAAAUCUGUCUUGUGAAUGGACUGUCAGCUGUUAAACUGUUCCUGUUUUGAAGUGCUAUUACCUUUCUCAGUUACCAGAAUCUUGCUGCUAAAGUUGCAAGUGAUUGAUGGAAUUCUCGGGUGCCAA | 0.945
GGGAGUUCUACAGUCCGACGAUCAAAAUUAAAGAACAAGAUGUGGUUUUUUGUUUAAGACGUUUUUAGUUUAUUUGUUGUUAAGUUAAACUGGAGAAAGUUUGUCAUCCUCAUUUUCAAACUGAAAACUAAUCUGGAAUUCUCGGGUGCCAA | 0.994
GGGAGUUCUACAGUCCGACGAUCGUUUCCACAUUUUUUGCUUGUGGAAAGACUGUUUUCAUAUGUUCUACUUGGAUAAAGAAUUUAAAUGGAAUUACGUAUAAAUUAAUAUAAAAUGAUUACCUCUGGUGUUGUGGAAUUCUCGGGUGCCAA | 0.684
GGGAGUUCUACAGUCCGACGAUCAGUAUAUGUUUGGCUCAUUUGAGCAUUUUGGAAUAUUUGAGAAUGUAUGAUACAUGUAAAAUUAAAAAAACUAUUAGAACUGUACCAUAAUUAUGUUGAAGGUAGAAGUGUGGAAUUCUCGGGUGCCAA | 0.665
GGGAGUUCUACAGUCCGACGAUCUGAUCUCAGGGAAGCCCAGCUCCAGGGCCAGAUGAGCAGAAGCUCUCGAUGGACAAUGAACGGCCUUGCUGGGGGCCGCCCUGUACCCUCUUUCACCUUUCCCUAAAGACUGGAAUUCUCGGGUGCCAA | 0.573
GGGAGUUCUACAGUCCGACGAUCACUUAAAAAAAAAAGUAGGGAGAUUAAAAAAAAAGAAAGAAAAUGCUUCCUUAUCUGGAAGCCUUUCUGGAUUAAUCCAGUGAUGGUCCCACCUUUAGUGUUUGAGCUUUUGGAAUUCUCGGGUGCCAA | 0.461
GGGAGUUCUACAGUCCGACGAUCUGUCUUUGAAUUAGAAUCCAGACUAGUGUGGGAAGCAGUCUCUCUGGACUUUGAUUUAGGGAUCAUGUUUUGGCCUGGAAAAUAAGCAUUGGCCUGCGUGUUUAGAAGCUUGGAAUUCUCGGGUGCCAA | 0.863
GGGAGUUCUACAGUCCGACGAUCCAUGGUUUUUGAUCCCAGCUCGCCCACAGCCCUGGCCCCACCUCACCCCAUAGUGGGGGACUGGAGUCGCCUUGGUGCUCAUUCCCUGAGCCCCCCAAUCCUCCUCUGUCUGGAAUUCUCGGGUGCCAA | 0.285
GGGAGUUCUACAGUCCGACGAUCCCUACAACAUUUUUUUAACCCCAAAAUUAUAGCCUGAAUGUUCGCUUUUAGUCUGGCCAGGGAUCUGACUCCUGAGUUGGUUGCCUCUCCCCUGCUCACUCCAGUCACAUUGGAAUUCUCGGGUGCCAA | 1

Set 3
Target: Hepatocyte nuclear factor 3-alpha (Foxa1, Mus musculus, UniProt P35582, residues 1-468, full length assumed)
Technique: EMSA with sequencing
Form: double-stranded DNA, one strand shown
Sample: in vitro
Concentration: 10 and 20 nM
Notes: whole designed probe, mean of two concentrations, ends assumed
Relative to: negative control set to 0
Reading: higher = stronger binding
Construct (chain): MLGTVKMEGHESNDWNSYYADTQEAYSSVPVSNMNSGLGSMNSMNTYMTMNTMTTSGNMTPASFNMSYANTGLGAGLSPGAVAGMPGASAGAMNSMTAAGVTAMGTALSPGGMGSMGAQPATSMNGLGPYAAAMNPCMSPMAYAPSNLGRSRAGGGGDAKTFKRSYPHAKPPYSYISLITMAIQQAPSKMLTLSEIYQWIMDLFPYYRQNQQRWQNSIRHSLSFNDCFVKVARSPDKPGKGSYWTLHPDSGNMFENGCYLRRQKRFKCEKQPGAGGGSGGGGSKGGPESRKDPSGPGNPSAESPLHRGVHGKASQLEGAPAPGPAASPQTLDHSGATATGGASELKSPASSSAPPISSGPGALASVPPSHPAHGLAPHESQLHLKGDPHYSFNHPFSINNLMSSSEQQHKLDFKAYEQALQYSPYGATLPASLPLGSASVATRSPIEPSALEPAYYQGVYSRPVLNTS
Strand | normalised bound fraction [ratio]
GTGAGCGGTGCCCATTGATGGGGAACCCCATGTTAAGAGGCCAGGCAGACAGACCTAGGGCTGGATCTGCAGATAAGTCATCTACACTGGACCCTTGGCTTTGCTTTTAATTGGTTCAAAAATTGCACAGTGACATCACACCTGCGCCTTACCTACTCAATAACAAGCTTTCTCTCAGTCACCCAGAAGAAACTGCAAAGAAAAGCAAATTGTTTCAGGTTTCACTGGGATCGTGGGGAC | -0.0155
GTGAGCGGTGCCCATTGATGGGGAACAGTCTTTACAAATCAAAGAGACAGCACTGCTTTTGCTGAAGCGGGACAAAAATACCTCAAGGCACAACTCCTCCGTGCGCTTATCCCCTGCAGTGTAAACAGGGCCAATTCAATGGGTATTGTTTCCTTTACTTAGGCAGGATGATTTCCCTCAACTCTTAAGGAATCCAGGACTTTCCAGACCATTTCATCATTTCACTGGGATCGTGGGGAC | 0.153
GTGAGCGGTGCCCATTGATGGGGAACTCAGGTCAGAGCAGGTGACCAGGGGTGACTCAGGATGGAGCAGGTGACCAGAGGAATAGAGGTGAACTACTGATTAGAACTGGTGGAAAAGGTTGTTTACTGAAACTAGAGGCGAGGAGAACGAGGAAGCTAGACTTTAGAGCGCAAAGAACCGAGCATACTGACATACTGATTCTTTGAAGAGAAATTTAGATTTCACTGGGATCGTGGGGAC | 0.0526
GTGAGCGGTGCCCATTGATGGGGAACCTCCTGACCTGGGACCCCACAGAGCTGGGCCTGTCATCACATTTATGGGGCTGCAGCTGACCTGGGAACTCCCTTCCTCAGTCAGTCCACAAATATTTACCCAGAGCCTCAGGGTGCTCAGTGAGCATTACAAAACAAAGTGCAGAGTCACGTGCCAGGGCACAGCAATCCCGGGCAAAACAGACCGAAACCCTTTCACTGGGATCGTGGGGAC | 0.147
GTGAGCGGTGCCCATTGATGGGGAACCTCATTCCTTGCTTCCGCCAATAATCTGACTAGTAAAGAAGTCACTGCATGCCACAAATTGTCAGTGCTGACTTCCTCAACAAGGAAGTTATTTATTTACTTATTTAATATATATGGAGTGACTCAGCAAATTCCATCTTGAGAATACCAACTCCTGATGCCAACTGATTGTCAGTCATGGCTACAACAGGAGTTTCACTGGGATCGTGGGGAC | 0.456
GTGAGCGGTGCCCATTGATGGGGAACATCTTCCCCCTCTTCCTTGCCCCACCAGCTCACCTTCCCGGGTTATTTGCAGATAGGAAAATAAATAAAGCCGGCATTCGTTAACGCAGTTCACGCGCATACTGCTGTTTGCTCTGGATGAATCATGGTCCTTTGGCGAGGCGTGGCTCCGGGAGAGCAAAGCACCGTGTCAGGGCCATGATCCGGGCTCGCCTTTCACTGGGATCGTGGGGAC | 0.345
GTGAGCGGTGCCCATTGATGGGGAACGCTTAAACCAATAAAACATTTATCTCACAGTTTCTGTGGGTCAGGAATCCAGGAGTGGCTTTGCTGGGTGGTTCTGCCTCAGGGTATCTGCCCAGATTACAGTCATGCTGTTGGCTGGGCTGCAGAGGCTGGAAGCCTCTTTGGGGCCAGATGATTTGTTTCTGAGCTTGTTCATGTGGTTGTGGTCAGAAGGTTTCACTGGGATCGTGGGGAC | 0.121
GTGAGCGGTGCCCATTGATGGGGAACTCCTTTGCATCATATGTTTGCTACTAATATTTTTTCTTAAATTTATAAAAGACAATTTTAGCAATGGGAACAGTAGTTGGAATAGGTTATTTTCTGTTTACTTTGATACTTAAAGGCCATCAGAAGAATGGACTTTTTCCTTTAATTCCCTTCCTGCCTTCTTTTTTACATATAGTAAATTTCCAGAAGAAAATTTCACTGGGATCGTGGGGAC | 0.38

Set 4
Target: Histone acetyltransferase KAT6A, winged helix 2, GST fusion (KAT6A, Homo sapiens, UniProt Q92794, residues 85-181)
Technique: protein binding microarray
Form: double-stranded DNA, one strand shown
Sample: in vitro
Concentration: not given
Notes: 8-mer, flanks averaged, mean of 2 arrays, mostly near background
Relative to: not given
Reading: higher = stronger binding
Residues (chain): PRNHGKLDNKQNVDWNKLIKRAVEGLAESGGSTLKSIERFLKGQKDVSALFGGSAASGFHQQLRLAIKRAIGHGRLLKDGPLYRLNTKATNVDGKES
Strand | E-score
CCACCTAC | -0.198
ATCCGGAA | 0.126
AAGATTGG | -0.0516
ATCATTAG | -0.0334
AGAGTGAC | -0.0739
TCCCCAAA | -0.0309
CGACTCCA | 0.00786
ACAGACGA | -0.0575
AACTCATG | -0.0369
CACTACAC | -0.0273
ACATGCTA | -0.135
CCTGCTAA | -0.0271
TGGACTAA | -0.0251
ATGCAGAG | 0.0473
ATATGTCC | -0.0474
CAAACGTG | -0.176
CTCATGCA | -0.0532
CTCTGCGC | 0.096
TGGGAGAA | 0.000995
ATAATGCC | 0.053
GCTGGTCC | 0.139
AGAAAAAC | 0.0425
AAGCGACC | 0.139
ATAACAAG | 0.189

For quick reference, copied from above (set 4):
Strand | E-score
CTCTGCGC | 0.096
AGAGTGAC | -0.0739
TGGGAGAA | 0.000995
ATCCGGAA | 0.126
